Assay results from different studies.
Each numbered part is a random draw from the data of one study; scales do not carry over between parts.

Series 1 — organism: VSVΔG pseudotyped with SARS-CoV-2 S; effect on: pseudovirus infection; strain: Wuhan; concentration: 10 µM
The inhibition of `CC(C)(C)NC(=S)N/N=C/C=N/NC(=S)NC(C)(C)C` is reported as 55%.
With `CN(C)c1ccc2nc3ccc(N(C)C)cc3[s+]c2c1` the inhibition was 61%.
`C=CCNC1=C2C[C@@H](C)C[C@H](OC)[C@H](O)[C@@H](C)/C=C(\C)[C@H](OC(N)=O)[C@@H](OC)/C=C\C=C(/C)C(=O)NC(=CC1=O)C2=O` gave an inhibition of 50%.

Other studies, line by line
rep papain-like protease: Replicase polyprotein 1ab, papain-like protease (rep, Severe acute respiratory syndrome coronavirus 2, UniProt P0DTD1)
rep nsp14: Replicase polyprotein 1ab, nsp14 (rep, Severe acute respiratory syndrome coronavirus 2, UniProt P0DTD1)
rep nsp12 RdRp: Replicase polyprotein 1ab, nsp12 RdRp (rep, Severe acute respiratory syndrome coronavirus 2, UniProt P0DTD1)
`CC(C)[C@H](N)C(=O)N1CCC[C@H]1B(O)O.CS(=O)(=O)O` has an activity of 14% (rep papain-like protease; concentration not given, C111S mutant; reference: positive control).
With `O=C(NC1CCN(c2ncnc3[nH]cnc23)CC1)c1cccc(S(=O)(=O)N2CCCC2)c1` the Hill slope was 2.22 (rep nsp14; enzyme activity; SARS-CoV-2).
`Cc1ccc(-n2[nH]c(C)c(N=Nc3cccc(-c4cccc(C(=O)O)c4)c3O)c2=O)cc1C` has a BLI response of -0.01 nm (rep nsp12 RdRp; binding, biolayer interferometry; concentration not given).
For `C=C[C@@H]1C[C@]1(NC(=O)[C@@H]1C[C@@H](Oc2ncc(OC)c3ccc(Cl)cc23)CN1C(=O)[C@@H](NC(=O)OC(C)(C)C)C(C)(C)C)C(=O)NS(=O)(=O)C1CC1`, the activity was 16.1% (rep papain-like protease; concentration not given, C111S mutant; reference: positive control).
`O=C(NC1CCN(c2ncnc3[nH]cnc23)CC1)c1cccc(S(=O)(=O)N2CCCCCC2)c1` gave an inhibition of 20.7% (rep nsp14; enzyme activity; SARS-CoV-2; concentration not given).
The BLI response of `O=C(c1cccc(-c2nc3ccccc3[nH]2)n1)N1CCN(C(=O)c2cccc(-c3nc4ccccc4[nH]3)n2)CC1` is reported as -0.02 nm (rep nsp12 RdRp; binding, biolayer interferometry; concentration not given).

For quick reference, copied from above (other studies, line by line):
`O=C(NC1CCN(c2ncnc3[nH]cnc23)CC1)c1cccc(S(=O)(=O)N2CCCCCC2)c1` gave an inhibition of 20.7% (rep nsp14; enzyme activity; SARS-CoV-2; concentration not given).
